Measurements of several laboratories.
Compare with care: the assays were run in different laboratories. Values joined by “and” are separate records of one study, mostly repeats; a detail may differ. ± marks the error that the study gave.
CASP1: Caspase-1 (CASP1, Homo sapiens, UniProt P29466)
HSP90AA1 N-terminal domain: Heat shock protein HSP 90-alpha, N-terminal domain (HSP90AA1, Homo sapiens, UniProt P07900)
Rhomboid protease AarA: Rhomboid protease AarA (Providencia stuartii, UniProt P46116)
T1: ssRNA, hairpin with 1x1 G/G internal loops (Homo sapiens); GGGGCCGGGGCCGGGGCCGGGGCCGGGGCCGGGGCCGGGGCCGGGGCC
T2: G-quadruplex RNA, G-quadruplex (Homo sapiens); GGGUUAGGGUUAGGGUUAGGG

The kinact/KI of `CC(=O)N[C@@H](CCC(C)C)C(=O)N[C@@H](CCC(=O)O)C(=O)N[C@@H](C)C(=O)N[C@@H](CC(=O)O)C(=O)COC(=O)c1c(C)cccc1C` is reported as 1.14e+06 M⁻¹ s⁻¹ (CASP1; enzyme activity, inhibitor).
For `CC(C)(C)OC(=O)NC(Cc1cccc(Cl)c1)C(=O)NCC=CS(=O)(=O)c1ccccc1` (centres unmarked), the kinact/Ki was 16400 M⁻¹ s⁻¹ (Procathepsin L (CTSL, Homo sapiens, UniProt P07711); inhibitor; together with: Z-Phe-Arg-pNA).
For `C#CCCC1(CCNC(=O)CCC)N=N1`, binding read “no binding” (T1, ssRNA, hairpin with 1x1 G/G internal loops (Homo sapiens); covalent, Chem-CLIP pulldown).
The koff of `N#CC1=C(N)Oc2n[nH]c(-c3cccc4ccccc34)c2C1c1ccccc1` (centres unmarked) is reported as 0.0231 ± 0.0144 s⁻¹ (HSP90AA1 N-terminal domain; SPR, two-state model; N-terminal domain).
Under “isoTOP-ABPP competition ratio”, `CCCCCC=CC=C1C(=O)C=CC1CC=CCCCC(=O)O` (centres unmarked) is recorded as 6.5 (ADP-ribose glycohydrolase MACROD1 (Homo sapiens, UniProt Q9BQ69); competitive isoTOP-ABPP; proteome, soluble, MDA-MB-231; 100 µM, 60 min, together with: iodoacetamide probe; reference: DMSO over compound-treated, higher = stronger cysteine blockade).
`CC1C(=O)N(C(=O)c2ccccc2)C1c1ccccc1` (racemic) — result for IC50: “inactive” (Rhomboid protease AarA; enzyme activity, inhibitor, fluorogenic peptide substrate).
`CC(=O)N1c2ccc(-c3ccc(CNC(=O)c4cn5cc(-c6cnc(N)nc6)nc(N6CCOCC6)c5n4)cc3)cc2CC[C@@H]1C` has a remaining binding of 95% (SWI/SNF-related matrix-associated actin-dependent regulator of chromatin subfamily A member 2 (SMARCA2, Homo sapiens, UniProt P51531); binding, competition with immobilised ligand; 10 µM).
The fold change of `CCN(CC)C(CO)c1cccc2c(C)c(C)oc12` (centres unmarked) is reported as 1.02 and 0.985 and 0.971 and 0.982 and 0.992 and 0.989 (Lysophosphatidic acid receptor 1 (LPAR1, Homo sapiens, UniProt Q92633); G-protein dissociation, agonist, NanoBiT; HEK-293T; 10 pM, wild-type receptor; reference: baseline luminescence).
For `N#CN1CC[C@H](C(=O)Nc2nc3c(s2)CN(C(=O)Cn2cc(CNC(=O)CCCC[C@@H]4SC[C@@H]5NC(=O)N[C@@H]54)nn2)CC3)C1`, the iBAQ abundance was 918000 (Ubiquitin thioesterase OTUB1 (OTUB1, Homo sapiens, UniProt Q96FW1); probe binding, affinity probe, neutravidin pull-down LC-MS/MS; HEK293T, cell lysate; 5 µM, 1 h, mean of three replicates, unit not given; higher = more pulled down).
For `O=S(=O)(c1cccc(Br)c1)N1CCC1c1ccccc1` (centres unmarked), IC50 read “inactive” (Rhomboid protease AarA; enzyme activity, inhibitor, fluorogenic peptide substrate).
`CC(C)(O)c1ccn2c(-c3ccc(F)c(-c4ccc(F)cc4C#N)c3)cnc2c1F` — result for “duration of protein increase”: at least 48 h (Gamma-aminobutyric acid receptor subunit alpha-1 (GABRA1, Homo sapiens, UniProt P14867, G251D); total protein level, Western blot; HEK-293T stably expressing GABAA receptors; 5 µM, single dose, together with: hispidulin 10 µM).
With `CC[C@H](NC(=O)[C@@H](NC(=O)[C@H](CC(=O)O)NC(C)=O)[C@@H](C)O)C(=O)N[C@@H](CC(=O)O)C(=O)COC(=O)c1c(C)cccc1C` the kinact/KI was 32000 M⁻¹ s⁻¹ (CASP1; enzyme activity, inhibitor).
`CC[C@H](C)[C@H](NC(=O)[C@H](CO)NC(=O)[C@H](CC(N)=O)NC(C)=O)C(=O)N[C@@H](CCCNC(=N)N)C(=O)N[C@@H](CCCCN)C(=O)N[C@@H](Cc1ccccc1)C(=O)N[C@@H](COP(=O)(O)O)C(=O)N[C@H](C(=O)N[C@H](C(=O)N[C@@H](CCC(N)=O)C(=O)N[C@@H](CCCCN)C(=O)N[C@H](C(=O)N1CCC[C@H]1C(=O)NCC(=O)NCC(=O)NCC(=O)NCC(=O)NCC(=O)N[C@@H](CCC(N)=O)C(=O)N[C@@H](C)C(=O)N[C@@H](CCCNC(=N)N)C(=O)N[C@@H](CCCNC(=N)N)C(=O)N[C@@H](CCCNC(=N)N)C(=O)N[C@@H](CCC(N)=O)C(=O)N[C@@H](COP(=O)(O)O)C(=O)N[C@H](C(=O)N[C@@H](CC(C)C)C(=O)N[C@@H](CC(N)=O)C(=O)N[C@@H](CC(C)C)C(=O)N[C@@H](CCSC)C(=O)N[C@H](C(N)=O)[C@@H](C)O)C(C)C)[C@@H](C)O)C(C)C)[C@@H](C)CC` gave a ΔH of -12.3 kcal/mol (14-3-3 protein beta/alpha (Homo sapiens, UniProt P31946); binding, ITC; pH 7.4, 37 °C, together with: CFTR R-domain peptide).
For `CC(C)Oc1cc(Cl)ccc1CNc1cc(-c2ccccc2)nc2ncnn12`, the cAMP luminescence was 42400 a.u. and 40100 a.u. and 43800 a.u. and 42900 a.u. and 35100 a.u. (G-protein coupled receptor 3 (GPR3, Homo sapiens, UniProt P46089, Q215A); cAMP level, cAMP GloSensor; 100 pM; higher = more cAMP).
For `C=CC(=O)N1C[C@H](C)N(c2nc(OC[C@@]34CCCN3C[C@H](F)C4)nc3c(F)c(-c4ccc(F)c5sc(N)c(C#N)c45)c(C(F)(F)F)cc23)C[C@H]1C`, “dissociation rate constant koff” read 0.00159 ± 0.00054 s⁻¹ (GTPase KRas, GDP-bound (KRAS, Homo sapiens, UniProt P01116, G12V); SPR).
`Cc1c(C)n(-c2ccc(Br)cc2)c2ncnc(N3CCC(C(N)C(=O)N4CCCC4)CC3)c12` (centres unmarked) gave a kon of 70100 M⁻¹ s⁻¹ (Protein-arginine deiminase type-4 (PADI4, Homo sapiens, UniProt Q9UM07); surface plasmon resonance).
The fibrinogen binding of `O=C(N[C@@H](Cc1ccc(OCCCCC2CCNCC2)cc1)C(=O)O)c1nc2ccccc2o1.O=C(O)C(F)(F)F` is reported as 0.88 (Integrin alpha-IIb/beta-3 (Homo sapiens, UniProt P05106+P08514); inhibitor, flow cytometry; washed platelets, human; 15 nM, together with: ADP and Alexa647-fibrinogen; reference: untreated).
For `O=C(N1CCCC1)n1cc(-c2ccc(-c3ccccc3)cc2)nn1`, the SILAC ratio was 1.09 and 1.3 and 1.04 and 1.21 and 1.35 and 1.32 (Presenilin-associated rhomboid-like protein, mitochondrial (Parl, Mus musculus, UniProt Q5XJY4); probe labelling, inhibitor, competitive ABPP-SILAC, refers to: Parl; mouse T cells; concentration not given, 4 h, in situ, single peptide; reference: treated over DMSO, lower = more inhibition).
`CCCCCCOc1ccc(C(=O)OCC[N+]2(C)CC=CCC2)cc1` (centres unmarked) has a basal binding of 0.91 ± 0.04 fold (Muscarinic acetylcholine receptor M4 (CHRM4, Homo sapiens, UniProt P08173); membranes; 10 µM, 15 h, no carbachol; reference: control).
The kinact/KI of `CC(=O)N[C@@H](CC(=O)O)C(=O)N[C@@H](CCC(=O)O)C(=O)N[C@H](C(=O)N[C@@H](CC(=O)O)C(=O)COC(=O)c1c(C)cccc1C)C(C)C` is reported as 72300 M⁻¹ s⁻¹ (CASP1; enzyme activity, inhibitor).
`C#CCCC1(CCC(=O)NCC2CN(CCCCCNC(=O)CN(CCN)C(=O)Cn3cnc4c(=O)[nH]c(N)nc43)CCN(CCCCCNC(=O)CN(CCN)C(=O)Cn3cnc4c(=O)[nH]c(N)nc43)CCN(CCCCCNC(=O)CN(CCN)C(=O)Cn3cnc4c(=O)[nH]c(N)nc43)CCN2CCCCCNC(=O)CN(CCN)C(=O)Cn2cnc3c(=O)[nH]c(N)nc32)N=N1` (centres unmarked) — result for “change in melting temperature”: 19.9 °C (T2, G-quadruplex RNA, G-quadruplex (Homo sapiens); FRET melting).
The specific binding of `O=C1c2sc(-c3ccc(N4CCC(F)C4)nc3F)nc2CCN1c1cccnc1` (centres unmarked) is reported as 48.9 nM (TAR DNA-binding protein 43, aggregated (TARDBP, Homo sapiens, UniProt Q13148); saturation autoradiography; human, FTLD-TDP type A brain sections; 7.63 nM).
`Nc1nc2c([C@@H]3N[C@H](COP(=O)(O)O)[C@@H](O)[C@H]3O)c[nH]c2c(=O)[nH]1` gave a selectivity ratio of 0.0001 (Uncharacterized protein (Trypanosoma cruzi, UniProt Q4DRC3); inhibitor, spectrophotometric IMP formation; reference: human HGPRT Ki over Uncharacterized protein Ki).
`COc1ccccc1C(=O)C(F)(F)F` — result for IC50: “inactive” (Rhomboid protease AarA; enzyme activity, inhibitor, fluorogenic peptide substrate).
For `CC(=O)N1[C@H](C(=O)N[C@@H](CC(C)C)C(=O)N[C@@H](C)C(=O)N[C@@H](CC(=O)O)C(=O)COC(=O)c2c(C)cccc2C)C[C@@H]2CCCC[C@@H]21`, the kinact/KI was 61000 M⁻¹ s⁻¹ (CASP1; enzyme activity, inhibitor).
With `O=c1[nH]c(C(Cl)Cl)nc2sc3c(c12)CCN(Cc1ccccc1)C3` the kon was 131 ± 93.6 M⁻¹ s⁻¹ (HSP90AA1 N-terminal domain; SPR, two-state model; N-terminal domain).

For quick reference, copied from above:
The fibrinogen binding of `O=C(N[C@@H](Cc1ccc(OCCCCC2CCNCC2)cc1)C(=O)O)c1nc2ccccc2o1.O=C(O)C(F)(F)F` is reported as 0.88 (Integrin alpha-IIb/beta-3 (Homo sapiens, UniProt P05106+P08514); inhibitor, flow cytometry; washed platelets, human; 15 nM, together with: ADP and Alexa647-fibrinogen; reference: untreated).
For `O=S(=O)(c1cccc(Br)c1)N1CCC1c1ccccc1` (centres unmarked), IC50 read “inactive” (Rhomboid protease AarA; enzyme activity, inhibitor, fluorogenic peptide substrate).
The koff of `N#CC1=C(N)Oc2n[nH]c(-c3cccc4ccccc34)c2C1c1ccccc1` (centres unmarked) is reported as 0.0231 ± 0.0144 s⁻¹ (HSP90AA1 N-terminal domain; SPR, two-state model; N-terminal domain).
`C#CCCC1(CCC(=O)NCC2CN(CCCCCNC(=O)CN(CCN)C(=O)Cn3cnc4c(=O)[nH]c(N)nc43)CCN(CCCCCNC(=O)CN(CCN)C(=O)Cn3cnc4c(=O)[nH]c(N)nc43)CCN(CCCCCNC(=O)CN(CCN)C(=O)Cn3cnc4c(=O)[nH]c(N)nc43)CCN2CCCCCNC(=O)CN(CCN)C(=O)Cn2cnc3c(=O)[nH]c(N)nc32)N=N1` (centres unmarked) — result for “change in melting temperature”: 19.9 °C (T2, G-quadruplex RNA, G-quadruplex (Homo sapiens); FRET melting).
